Experimental data pooled from the literature.
Compare with care: the assays were run in different laboratories. Several values in a cell are separate wells, animals, samples, runs or records. ± marks the error that the study gave.
Target: Acetylcholinesterase (ache, Electrophorus electricus, UniProt O42275)
Action: inhibitor

The IC50 of `CCCCCn1c(SC(C(=O)NCc2ccccc2)C(=O)NCc2ccccc2)nc2cc(C(=O)Nc3cccc(C(F)(F)F)c3)ccc2c1=O` is reported as 6.1 µM.
For `CC(=O)C1=C(C)NC(SCCCSc2nnc(Cc3ccccc3Nc3c(Cl)cccc3Cl)n2-c2ccc(Cl)c(Cl)c2)=NC1c1ccccc1` (stereo not drawn), the IC50 was 0.47 µM (enzyme activity, Ellman).
`COc1cc2c(cc1OC)C(=O)C1(C2)C(c2ccc(C)cc2)C(Cc2c[nH]c3ccccc23)NC12C(=O)Nc1ccc(OC(F)(F)F)cc12` (stereo not drawn) has an IC50 of 12.8 ± 0.15 µM (enzyme activity; pH 8).
With `O=c1c(Nc2ccc(O)cc2)c(NC2CCN(Cc3ccccc3)CC2)c1=O` the IC50 was 9.6 µM (enzyme activity, Ellman).
The IC50 of `COc1cc(CCC(=O)N2CCC(Cc3ccccc3)CC2)ccc1OCCCCN1CCCCC1` is reported as 7.6 µM (enzyme activity, Ellman).
With `O=C(COc1ccc(Sc2ccc(OCC(=O)N/N=C/c3ccc(O)cc3O)cc2)cc1)N/N=C/c1ccc(O)cc1O` the IC50 was 39.1 µM (enzyme activity).
`COc1cccc2c1CC1c3c(cc4c(c3-2)OCO4)CCN1C` (single isomer, unassigned; (-)) has an IC50 of 11.3 µM (enzyme activity).
With `COc1ccc([N+](=O)[O-])cc1NC(=O)CCC(=O)[O][Zn][O]C(=O)CCC(=O)Nc1cc([N+](=O)[O-])ccc1OC.c1ccncc1` the IC50 was 317 µM (enzyme activity).
With `O=C(COc1ccc(Sc2ccc(OCC(=O)N/N=C/c3ccc(Cl)cc3Cl)cc2)cc1)N/N=C/c1ccc(Cl)cc1Cl` the IC50 was 47.3 µM (enzyme activity).
The IC50 of `CCCCCc1nc2ccc(/N=N/c3ccc(Cl)cc3)cc2c(-c2ccccc2)c1I` is reported as 14.3 µM (enzyme activity, Ellman; pH 7.4).
`C=CCc1ccc(OCC=C(C)C)c(OC)c1` has an IC50 of 141 µM (enzyme activity, Ellman; pH 7.5).
With `O=C(CN1C(=O)c2ccccc2C1=O)Nc1cc[n+](Cc2cccc(Cl)c2)cc1` the IC50 was 7.4 µM (enzyme activity, Ellman).
`O=c1oc2c(CNCCc3cccc(F)c3)c(O)ccc2c2c1CCC2` has an IC50 of 0.482 µM (enzyme activity, Ellman).
With `COc1ccc2c(c1)CC1c3c(cc4c(c3-2)OCO4)CCN1C` (single isomer, unassigned; (-)) the IC50 was 11.9 µM (enzyme activity).
The IC50 of `CC(=O)c1c(O)ccc2ccc(=O)oc12` is reported as 23.7 µM (enzyme activity, Ellman).
`CCCCc1nc2ccc(/N=N/c3ccc(Br)cc3)cc2c(-c2ccccc2)c1I` has an IC50 of 7 µM (enzyme activity, Ellman; pH 7.4).
`COc1cc2c(cc1OC)C(=O)C1(C2)C(c2ccc(Cl)cc2)C(Cc2c[nH]c3ccccc23)NC12C(=O)Nc1ccc(OC(F)(F)F)cc12` (stereo not drawn) has an IC50 of < 10 µM and 7.22 µM (enzyme activity; pH 8).
`COc1cc2c(cc1OC)C(NCC1CCN(Cc3ccccc3)CC1)CC2=O` (stereo not drawn) gave an IC50 of 0.991 µM (enzyme activity, Ellman).

Excerpt of the above:
With `O=C(CN1C(=O)c2ccccc2C1=O)Nc1cc[n+](Cc2cccc(Cl)c2)cc1` the IC50 was 7.4 µM (enzyme activity, Ellman).
`O=c1oc2c(CNCCc3cccc(F)c3)c(O)ccc2c2c1CCC2` has an IC50 of 0.482 µM (enzyme activity, Ellman).
With `COc1ccc2c(c1)CC1c3c(cc4c(c3-2)OCO4)CCN1C` (single isomer, unassigned; (-)) the IC50 was 11.9 µM (enzyme activity).
